# Measured values collected from several papers.
# Protocols differ between the studies behind these lines. Several values in a cell are separate wells, animals, samples, runs or records. ± marks the error that the study gave.
SMILES,tested on,test,test system,conditions,scale,quantity,value
Cc1ccc(OCC(=O)N(Cc2cccs2)c2ccn[nH]2)cc1,,,"male CD-1 mouse, plasma","oral, 30 mg/kg",,AUC(0-t),0.391 µM·h
Cc1nn(-c2nc3c(F)cc(F)cc3s2)c(O)c1C(c1ccc(C(F)(F)F)cc1)c1c(C)nn(-c2nc3c(F)cc(F)cc3s2)c1O,,,"ICR mouse, plasma","intraperitoneal, 10 mg/kg",,AUC(0-t),26000 ng·h/mL and 26400 ng·h/mL and 28700 ng·h/mL
Cn1c2cc([S+](C)[O-])sc2c2cnn(Cc3cccc(N)c3)c(=O)c21 (stereo not drawn),,,"male BALB/c mouse, plasma","oral, 10 mg/kg, single dose",,AUC(0-t),24300 ng·h/mL
COc1cnc2cccc(N3CCc4c(cc(Cn5ccnc5)cc4-c4cn(C)nc4C(F)(F)F)C3=O)c2c1,,,"male CD-1 mouse, plasma","oral, 10 mg/kg",,AUC(0-t),3820 ng·h/mL
CC1CN(CCOCCSc2ccc(Cl)cc2)CC(C)O1.O=C(O)C(=O)O (stereo not drawn),Trypanosoma cruzi,"reporter mRNA translation, inhibitor, measured: Renilla luciferase mRNA",cell-free extract,"concentration not given, test 1",reference: positive over negative control,translation activity,113% and 114%
COC1CN([C@H]2CC[C@H]([C@@]3(C)Oc4c(Cl)cc(C(=O)NCc5c(SC)cc(C)[nH]c5=O)c(C)c4O3)CC2)C1,,"RNA-seq, measured: RHPN2","human, whole blood","dose not given, 24 h",reference: pretreatment baseline,log2 fold change,2.86
C=C(NC(=O)c1csc(-c2nc3c(cc2O)-c2nc(cs2)C(=O)NC(C(C)O)C(=O)NC(=C(C)OC)c2nc(cs2)C(=O)NC2c4nc(cs4)C(=O)NC(COC(=O)c4c5c6c(cccc6n4O)COC(=O)C(OC4CC(C)(O)C(N(C)C)C(C)O4)C2OC5)c2nc-3cs2)n1)C(N)=O (stereo not drawn),,,"male cynomolgus monkey, plasma","intravenous, 1 mg/kg, single dose, infusion",,AUC(0-t),8590 ng·h/mL
COc1ccccc1CN1CC(C(=O)NCCN(C)CCc2ccccc2)CCC1=O (stereo not drawn),Trypanosoma cruzi,"reporter mRNA translation, inhibitor, measured: Renilla luciferase mRNA",cell-free extract,"concentration not given, test 1",reference: positive over negative control,translation activity,107% and 120%
O=C(c1ccccc1)N1C(c2ccc(OCC3CCN(CCCF)C3)cc2)c2ccc(O)cc2CC12CC2 (stereo not drawn),,,"C57BL/6J mouse, plasma","oral, 25 mg/kg, group mean",,AUC(0-t),2890 ng·h/mL
O=C(OC(C(F)(F)F)C(F)(F)F)N1CCC(CNS(=O)(=O)c2ccc(Cl)cc2)CC1,,,"male SCID mouse, plasma","oral, 10 mg/kg",,AUC(0-t),1110 ng·h/mL
OC1(C(F)(F)F)CCN(c2nc(Nc3ccnc(C(F)(F)F)c3)nc(-c3cccc(C(F)(F)F)n3)n2)C1 (stereo not drawn),,,"monkey, blood","oral, 10 mg/kg",,AUC(0-t),143000 ± 14300 ng·h/mL
Cc1cc(NC(=O)[C@H](O)c2cc(F)cc(F)c2)ccc1-c1cnc(N)c(C(=O)NC(C)C)c1,,,"female nude mouse, plasma","oral, 100 mg/kg, single dose",,AUC(0-t),118000 ng·h/mL
